Experimental data from different studies.
Each numbered part is a random draw from the data of one study; scales do not carry over between parts. Several values in a cell are separate wells, animals, samples, runs or records.
Sequence of UniProt P29322 (whole entry, looked up): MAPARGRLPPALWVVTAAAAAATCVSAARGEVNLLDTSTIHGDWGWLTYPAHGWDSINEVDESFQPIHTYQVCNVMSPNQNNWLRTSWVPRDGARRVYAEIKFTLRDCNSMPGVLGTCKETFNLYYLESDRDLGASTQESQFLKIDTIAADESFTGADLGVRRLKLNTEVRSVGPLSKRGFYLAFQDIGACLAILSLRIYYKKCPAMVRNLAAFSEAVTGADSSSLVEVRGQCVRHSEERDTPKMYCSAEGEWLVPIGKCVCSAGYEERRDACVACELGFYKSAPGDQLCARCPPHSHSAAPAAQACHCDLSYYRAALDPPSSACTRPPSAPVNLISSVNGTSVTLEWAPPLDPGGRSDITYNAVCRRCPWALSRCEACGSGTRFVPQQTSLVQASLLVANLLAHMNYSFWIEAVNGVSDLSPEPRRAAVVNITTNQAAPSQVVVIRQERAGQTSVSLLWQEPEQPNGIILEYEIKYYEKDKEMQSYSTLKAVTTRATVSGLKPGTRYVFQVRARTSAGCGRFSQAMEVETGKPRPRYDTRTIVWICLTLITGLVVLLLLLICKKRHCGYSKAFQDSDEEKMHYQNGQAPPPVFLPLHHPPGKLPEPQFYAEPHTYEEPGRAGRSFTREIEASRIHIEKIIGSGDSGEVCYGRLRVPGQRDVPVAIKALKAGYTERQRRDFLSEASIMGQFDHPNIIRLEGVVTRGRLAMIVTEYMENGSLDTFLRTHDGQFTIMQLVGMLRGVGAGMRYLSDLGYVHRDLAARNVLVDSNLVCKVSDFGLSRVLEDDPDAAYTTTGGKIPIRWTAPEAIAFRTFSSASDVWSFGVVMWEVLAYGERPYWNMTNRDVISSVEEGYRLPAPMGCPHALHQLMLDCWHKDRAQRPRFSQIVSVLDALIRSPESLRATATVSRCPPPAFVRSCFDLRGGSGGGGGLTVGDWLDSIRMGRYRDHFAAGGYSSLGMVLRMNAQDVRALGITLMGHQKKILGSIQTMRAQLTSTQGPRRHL
Sequence of UniProt O15111 (whole entry, looked up): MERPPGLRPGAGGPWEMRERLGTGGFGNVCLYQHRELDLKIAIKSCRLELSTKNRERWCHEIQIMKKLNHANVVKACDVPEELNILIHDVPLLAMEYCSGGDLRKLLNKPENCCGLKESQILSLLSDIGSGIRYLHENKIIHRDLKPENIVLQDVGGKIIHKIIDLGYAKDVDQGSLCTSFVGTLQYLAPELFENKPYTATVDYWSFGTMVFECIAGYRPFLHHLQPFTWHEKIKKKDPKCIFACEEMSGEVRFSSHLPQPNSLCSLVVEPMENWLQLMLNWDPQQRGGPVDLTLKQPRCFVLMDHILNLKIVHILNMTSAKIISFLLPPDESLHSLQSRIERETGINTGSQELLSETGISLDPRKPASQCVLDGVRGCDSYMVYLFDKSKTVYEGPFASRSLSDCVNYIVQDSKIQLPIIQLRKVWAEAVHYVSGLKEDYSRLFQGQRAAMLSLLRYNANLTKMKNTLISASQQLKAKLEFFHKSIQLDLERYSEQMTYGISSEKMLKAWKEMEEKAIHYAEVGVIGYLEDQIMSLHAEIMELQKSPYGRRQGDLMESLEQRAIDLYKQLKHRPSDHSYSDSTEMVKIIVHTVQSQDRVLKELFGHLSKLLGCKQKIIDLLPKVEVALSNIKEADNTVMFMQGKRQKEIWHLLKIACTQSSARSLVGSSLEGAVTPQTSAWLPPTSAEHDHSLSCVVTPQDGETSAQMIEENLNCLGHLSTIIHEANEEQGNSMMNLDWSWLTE
Sequence of UniProt P36896 (whole entry, looked up): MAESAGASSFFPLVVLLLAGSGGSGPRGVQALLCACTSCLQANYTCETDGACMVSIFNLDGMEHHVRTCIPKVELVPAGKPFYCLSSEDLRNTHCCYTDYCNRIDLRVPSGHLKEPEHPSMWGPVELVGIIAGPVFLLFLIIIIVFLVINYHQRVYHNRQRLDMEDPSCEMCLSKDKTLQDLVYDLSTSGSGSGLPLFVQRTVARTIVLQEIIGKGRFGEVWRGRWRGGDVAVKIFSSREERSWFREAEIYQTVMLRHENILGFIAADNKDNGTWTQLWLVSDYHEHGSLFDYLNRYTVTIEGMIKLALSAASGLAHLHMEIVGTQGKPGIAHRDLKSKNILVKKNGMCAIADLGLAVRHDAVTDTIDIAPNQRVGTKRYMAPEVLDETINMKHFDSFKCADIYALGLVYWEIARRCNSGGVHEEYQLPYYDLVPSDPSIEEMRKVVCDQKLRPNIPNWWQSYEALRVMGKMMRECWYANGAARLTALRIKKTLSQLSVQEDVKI
Sequence of UniProt Q86UX6 (whole entry, looked up): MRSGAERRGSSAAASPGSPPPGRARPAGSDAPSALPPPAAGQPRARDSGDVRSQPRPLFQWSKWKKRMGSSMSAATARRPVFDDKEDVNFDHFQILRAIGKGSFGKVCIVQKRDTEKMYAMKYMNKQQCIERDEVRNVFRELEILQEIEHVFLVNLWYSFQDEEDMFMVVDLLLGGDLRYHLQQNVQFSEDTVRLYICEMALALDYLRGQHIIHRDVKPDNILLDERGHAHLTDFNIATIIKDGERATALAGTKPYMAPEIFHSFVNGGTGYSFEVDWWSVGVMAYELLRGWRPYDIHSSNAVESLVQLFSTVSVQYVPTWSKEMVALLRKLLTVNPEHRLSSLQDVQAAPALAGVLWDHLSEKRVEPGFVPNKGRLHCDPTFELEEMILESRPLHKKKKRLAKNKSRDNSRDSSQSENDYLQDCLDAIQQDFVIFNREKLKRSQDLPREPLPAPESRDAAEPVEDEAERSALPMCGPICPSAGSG
Sequence of UniProt Q86YV6 (whole entry, looked up): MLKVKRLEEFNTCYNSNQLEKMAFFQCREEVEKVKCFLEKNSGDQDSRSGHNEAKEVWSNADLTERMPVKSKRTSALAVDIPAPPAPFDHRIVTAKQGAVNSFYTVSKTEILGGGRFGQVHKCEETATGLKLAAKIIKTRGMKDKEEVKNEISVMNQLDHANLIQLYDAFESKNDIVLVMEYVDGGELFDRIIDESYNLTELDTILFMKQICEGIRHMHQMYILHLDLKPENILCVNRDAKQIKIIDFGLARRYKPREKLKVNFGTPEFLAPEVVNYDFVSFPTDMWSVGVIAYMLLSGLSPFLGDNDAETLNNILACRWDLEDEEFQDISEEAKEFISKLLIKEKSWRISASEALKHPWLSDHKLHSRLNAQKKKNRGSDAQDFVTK
Sequence of UniProt Q00537 (whole entry, looked up): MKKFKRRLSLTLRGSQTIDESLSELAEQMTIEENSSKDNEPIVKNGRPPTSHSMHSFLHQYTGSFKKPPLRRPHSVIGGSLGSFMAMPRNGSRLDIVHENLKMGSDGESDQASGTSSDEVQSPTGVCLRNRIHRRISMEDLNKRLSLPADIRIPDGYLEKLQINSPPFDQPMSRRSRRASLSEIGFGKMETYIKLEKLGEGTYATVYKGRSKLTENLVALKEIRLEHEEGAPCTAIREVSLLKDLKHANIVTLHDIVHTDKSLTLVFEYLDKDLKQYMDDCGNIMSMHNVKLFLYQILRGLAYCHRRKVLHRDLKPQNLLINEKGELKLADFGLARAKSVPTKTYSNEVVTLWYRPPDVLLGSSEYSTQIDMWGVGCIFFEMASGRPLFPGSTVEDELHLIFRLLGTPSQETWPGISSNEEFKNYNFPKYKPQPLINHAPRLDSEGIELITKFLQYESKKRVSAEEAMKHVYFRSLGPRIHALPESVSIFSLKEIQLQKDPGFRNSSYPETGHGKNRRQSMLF
Sequence of UniProt Q9H1R3 (whole entry, looked up): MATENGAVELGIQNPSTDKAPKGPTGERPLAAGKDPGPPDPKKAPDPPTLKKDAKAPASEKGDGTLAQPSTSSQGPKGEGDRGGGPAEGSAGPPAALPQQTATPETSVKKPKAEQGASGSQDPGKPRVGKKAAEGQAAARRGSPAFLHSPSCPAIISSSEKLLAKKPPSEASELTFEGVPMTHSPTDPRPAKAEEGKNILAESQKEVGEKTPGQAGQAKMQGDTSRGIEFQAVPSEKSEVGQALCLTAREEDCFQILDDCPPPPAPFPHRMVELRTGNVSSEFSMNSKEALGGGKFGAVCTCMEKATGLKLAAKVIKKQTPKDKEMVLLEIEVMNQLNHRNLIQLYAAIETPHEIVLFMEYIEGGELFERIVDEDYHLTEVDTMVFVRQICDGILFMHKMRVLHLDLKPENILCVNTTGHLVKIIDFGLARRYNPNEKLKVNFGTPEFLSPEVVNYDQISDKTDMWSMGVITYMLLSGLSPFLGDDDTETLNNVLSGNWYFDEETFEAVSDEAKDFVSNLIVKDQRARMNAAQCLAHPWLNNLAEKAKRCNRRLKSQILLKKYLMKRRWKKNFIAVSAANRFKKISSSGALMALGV

Block 1
Cell line: mouse MPNST tumor cells
Technique: high-content immunofluorescence imaging
Measured: nuclear SOX9
Concentration: 10 µM
Time: 12 h
Notes: mean of 2 replicates
Reference: DMSO control
Direction: higher = more nuclear SOX9
Endpoint: nuclear SOX9 intensity
Cc1cc2c(cc1S(N)(=O)=O)S(=O)(=O)CCC2: 109 % of DMSO
CC1(C)CCC(C)(C)c2cc(C#Cc3ccc(C(=O)O)cc3)ccc21: 118 % of DMSO
COC(=O)C1=C(C)NC(C)=C(C(=O)OC2CCCN(Cc3ccccc3)C2)C1c1cccc([N+](=O)[O-])c1 (stereo not drawn): 139 % of DMSO
CN/C(=N\c1ccc(C2=NNC(=O)CC2C)cc1)NC#N (stereo not drawn): 100 % of DMSO
COc1ccc(Nc2nccc(NCCO)n2)cc1: 87.8 % of DMSO
Cc1cccc(-c2[nH]ncc2-c2ccc(F)c(-c3cnn(CCO)c3)c2)n1: 135 % of DMSO
CCOC(=O)C1=C[C@@H](OC(CC)CC)[C@H](NC(C)=O)[C@@H](N)C1: 98.6 % of DMSO
Cc1onc(-c2ccccc2)c1-c1ccc(S(N)(=O)=O)cc1: 99.4 % of DMSO and 111 % of DMSO

Block 2
Compound: COc1ccc2c(O[C@@H]3C[C@H]4C(=O)N[C@]5(C(=O)O)CC5/C=C\CCCCC[C@H](NC(=O)OC5CCCC5)C(=O)N4C3)cc(-c3csc(NC(=O)C(C)C)n3)nc2c1C (stereo partly drawn)
Read-out: cell-free assay
Technique: competition with immobilised ligand
Concentration: 1 µM
Endpoint: remaining binding
Inhibitor of nuclear factor kappa-B kinase subunit alpha (CHUK, Homo sapiens, UniProt O15111): 92%
Myosin light chain kinase 2, skeletal/cardiac muscle (MYLK2, Homo sapiens, UniProt Q9H1R3): 100%
Receptor-type tyrosine-protein kinase FLT3, autoinhibited (FLT3, Homo sapiens, UniProt P36888): 87%
Ephrin type-A receptor 8 (EPHA8, Homo sapiens, UniProt P29322): 100%
Cyclin-dependent kinase 17 (CDK17, Homo sapiens, UniProt Q00537): 100%
Serine/threonine-protein kinase 32C (STK32C, Homo sapiens, UniProt Q86UX6): 63%
Activin receptor type-1B (ACVR1B, Homo sapiens, UniProt P36896): 100%
Myosin light chain kinase family member 4 (MYLK4, Homo sapiens, UniProt Q86YV6): 81%

Block 3
SMILES: CC(=O)N[C@@H](Cc1c[nH]c2ccccc12)C(=O)N[C@@H](CCC(=O)C=[N+]=[N-])C(=O)OC(C)C
Species: mice bearing EL4 tumours
Sample: EL4 tumour
Dose: dose not given
With: 13C5-glutamine
Endpoint: isotope enrichment
measured: glutamate M+5: 16% and 13.1% and 14.1% and 17% and 14.6%
measured: succinate M+4: 13.7% and 10.3% and 14.7% and 10% and 11.8% and 11.3%
measured: malate M+0: 87.8% and 84.4% and 88.7% and 83.1% and 89.8% and 86.2%
measured: fumarate M+0: 96% and 94.7% and 99.1% and 90.5% and 90.7% and 90.8%

Other studies, line by line
Nc1[nH]nc2nnc(-c3c(-c4ccccc4)nn4ccccc34)cc12 — remaining activity (Dual specificity tyrosine-phosphorylation-regulated kinase 1B (DYRK1B, Homo sapiens, UniProt Q9Y463); enzyme activity, inhibitor, radiometric; 0.5 µM): 101%
